Assay results pooled from the literature.
A part holds a random share of what one study measured. Substitutions count along the parent as printed.
Sequence of UniProt P61075 (whole entry, looked up): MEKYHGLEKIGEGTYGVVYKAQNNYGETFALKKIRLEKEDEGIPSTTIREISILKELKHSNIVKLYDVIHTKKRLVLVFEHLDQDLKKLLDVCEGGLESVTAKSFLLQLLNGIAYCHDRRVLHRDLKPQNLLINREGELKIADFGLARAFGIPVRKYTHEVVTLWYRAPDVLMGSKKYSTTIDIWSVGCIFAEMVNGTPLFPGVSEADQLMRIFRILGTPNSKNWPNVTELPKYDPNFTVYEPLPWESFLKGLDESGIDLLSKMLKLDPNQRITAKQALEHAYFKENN
Sequence of UniProt P11229 (whole entry, looked up): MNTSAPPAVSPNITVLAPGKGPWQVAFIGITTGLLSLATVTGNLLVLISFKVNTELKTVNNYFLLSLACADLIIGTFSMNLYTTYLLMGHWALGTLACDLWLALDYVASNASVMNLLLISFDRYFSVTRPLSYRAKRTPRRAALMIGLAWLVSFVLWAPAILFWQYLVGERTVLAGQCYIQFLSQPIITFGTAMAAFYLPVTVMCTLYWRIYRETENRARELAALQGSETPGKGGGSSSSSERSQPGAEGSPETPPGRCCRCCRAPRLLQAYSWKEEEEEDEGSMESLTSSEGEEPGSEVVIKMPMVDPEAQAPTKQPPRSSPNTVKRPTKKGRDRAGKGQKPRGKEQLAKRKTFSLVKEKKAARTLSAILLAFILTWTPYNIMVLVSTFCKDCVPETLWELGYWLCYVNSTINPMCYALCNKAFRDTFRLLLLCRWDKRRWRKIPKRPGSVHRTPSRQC
Sequence of UniProt Q9NSY1 (whole entry, looked up): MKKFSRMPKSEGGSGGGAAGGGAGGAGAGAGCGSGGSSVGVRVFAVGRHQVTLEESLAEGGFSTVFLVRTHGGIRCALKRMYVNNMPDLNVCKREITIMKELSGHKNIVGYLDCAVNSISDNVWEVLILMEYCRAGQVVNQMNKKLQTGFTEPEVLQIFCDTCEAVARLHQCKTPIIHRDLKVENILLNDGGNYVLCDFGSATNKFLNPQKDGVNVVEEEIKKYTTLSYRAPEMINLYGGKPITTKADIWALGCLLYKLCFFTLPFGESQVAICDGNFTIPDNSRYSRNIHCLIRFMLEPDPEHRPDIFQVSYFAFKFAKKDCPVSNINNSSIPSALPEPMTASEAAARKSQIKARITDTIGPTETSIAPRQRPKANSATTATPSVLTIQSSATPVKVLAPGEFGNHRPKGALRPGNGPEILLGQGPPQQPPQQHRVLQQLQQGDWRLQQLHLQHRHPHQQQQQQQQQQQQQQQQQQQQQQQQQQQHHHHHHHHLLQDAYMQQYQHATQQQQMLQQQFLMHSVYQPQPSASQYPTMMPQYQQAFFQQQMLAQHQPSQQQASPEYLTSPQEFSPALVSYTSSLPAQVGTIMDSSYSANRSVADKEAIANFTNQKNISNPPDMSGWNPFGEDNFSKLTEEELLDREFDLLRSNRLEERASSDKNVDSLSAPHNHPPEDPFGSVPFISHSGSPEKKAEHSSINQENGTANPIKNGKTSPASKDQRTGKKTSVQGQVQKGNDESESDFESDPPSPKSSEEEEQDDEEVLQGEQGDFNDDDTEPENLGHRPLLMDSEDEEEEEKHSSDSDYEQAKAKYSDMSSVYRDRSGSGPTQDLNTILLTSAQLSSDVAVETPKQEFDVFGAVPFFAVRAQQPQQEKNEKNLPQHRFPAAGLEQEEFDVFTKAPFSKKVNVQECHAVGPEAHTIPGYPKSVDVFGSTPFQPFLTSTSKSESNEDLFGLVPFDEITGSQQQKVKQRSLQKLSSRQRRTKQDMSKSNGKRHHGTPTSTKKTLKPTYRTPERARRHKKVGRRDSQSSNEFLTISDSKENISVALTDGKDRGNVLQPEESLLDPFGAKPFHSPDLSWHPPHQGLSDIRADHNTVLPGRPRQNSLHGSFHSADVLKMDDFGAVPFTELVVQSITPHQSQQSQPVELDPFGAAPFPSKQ
Sequence of UniProt P9WI81 (whole entry, looked up): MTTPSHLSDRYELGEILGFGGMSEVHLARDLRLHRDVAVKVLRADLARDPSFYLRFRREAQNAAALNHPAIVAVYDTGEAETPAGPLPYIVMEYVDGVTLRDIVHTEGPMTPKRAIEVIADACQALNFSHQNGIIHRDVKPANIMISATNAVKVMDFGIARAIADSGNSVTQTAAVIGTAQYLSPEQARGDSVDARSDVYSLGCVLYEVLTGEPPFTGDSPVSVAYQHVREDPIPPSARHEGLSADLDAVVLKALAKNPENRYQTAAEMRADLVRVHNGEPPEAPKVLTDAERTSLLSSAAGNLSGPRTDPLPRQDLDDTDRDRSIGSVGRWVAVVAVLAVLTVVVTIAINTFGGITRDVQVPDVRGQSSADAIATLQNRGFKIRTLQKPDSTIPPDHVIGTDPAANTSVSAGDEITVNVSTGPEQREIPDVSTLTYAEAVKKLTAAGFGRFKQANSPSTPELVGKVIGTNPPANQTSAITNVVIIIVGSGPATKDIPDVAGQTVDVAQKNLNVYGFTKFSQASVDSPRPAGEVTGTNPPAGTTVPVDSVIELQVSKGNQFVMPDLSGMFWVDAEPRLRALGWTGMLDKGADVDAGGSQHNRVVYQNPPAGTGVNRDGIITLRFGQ

Set 1
Target: HLA class I histocompatibility antigen, A alpha chain, allele A*80:01 (Homo sapiens, UniProt P04439)
Observed: peptide-MHC binding
Form: peptide
Direction: direction not given
Quantity: z-score of log IC50
Sequence = FHEFLSSKL; result = 0.38
Sequence = ATRSHRPLI; result = 0.38
Sequence = AFDLSFFLK; result = 0.38
Sequence = AILAGEHKC; result = 0.38
Sequence = FPRYPLNVL; result = 0.38
Sequence = AVEDFLAFF; result = 0.38
Sequence = FTRYRKEAI; result = 0.38
Sequence = ARLSSPIVL; result = 0.38

Set 2
Target: CCNF, cyclin fold, Cln2 fusion (human)
Technique: yeast growth competition, sequencing
Sample: yeast
Setting: strong parent motif
Relative to: not given
Direction: higher = stronger binding
Quantity: normalised enrichment score
Starting sequence: viral docking peptide; YKVKRRLVFGADD
Change = V3Q; result = 8.38
Change = F9M; result = 8.35
Change = R5H; result = 3.49
Change = G10N; result = 8.62
Change = V3L; result = 8.84
Change = A11P; result = 8.9
Change = F9Q; result = 1.11
Change = K4I; result = 8.68

Mixed results
SMILES = Cc1nc(N2CC[C@@H](O)C2)ncc1-c1cc(C(F)(F)F)cc2[nH]ncc12; tested on = CRK2 (Plasmodium falciparum, UniProt P61075); assay = cell-free assay, competition with immobilised ligand; conditions = 1 µM; quantity = remaining binding; result = 61%
SMILES = C[C@]12CC[C@H]3[C@@H](CCC4=CC(=O)CC[C@@H]43)[C@@H]1CC[C@@H]2O; tested on = Sarcocystis neurona; assay = parasite growth; conditions = 10 µM, second screen; how to read = relative to: untreated; quantity = log2 fold change; result = -0.00721
SMILES = O=C(NCc1ncc(C(F)(F)F)cc1Cl)c1ccc2c(c1)C1(CCS(=O)(=O)CC1)[C@H](C1CC1)N2S(=O)(=O)c1ccc(F)cc1; tested on = BMP2K (Homo sapiens, UniProt Q9NSY1); assay = cell-free assay, competition with immobilised ligand; conditions = 1 µM; quantity = remaining binding; result = 96%
SMILES = CCS(=O)(=O)c1cc2cc(C[C@@](O)(CC(C)(C)c3ccc(F)cc3C(N)=O)C(F)(F)F)[nH]c2cn1; tested on = CHRM1 (Homo sapiens, UniProt P11229); assay = binding, radioligand binding; conditions = 10 µM; quantity = inhibition; result = -19.7%
SMILES = Cc1cc(NC(=O)c2cccc(S(F)(F)(F)(F)F)c2)cc(-n2ccn3nc(-c4cccnc4)cc23)c1; tested on = pknB (Mycobacterium tuberculosis, UniProt P9WI81); assay = cell-free assay, competition with immobilised ligand; conditions = 1 µM; quantity = remaining binding; result = 63.7%

Some of these lines once more (set 2):
Change = F9Q; result = 1.11
